Measured values collected from several papers.
Compare with care: the assays were run in different laboratories.

For O=C1Nc2cc3[nH]nc(-c4ccncc4)c3cc2CN1Cc1ccccc1, “patients with constipation” read 0% (CTCAE v4.03; advanced solid tumour patients; intravenous, 0.45 mg/kg, schedules 1/2).
C=CC(=O)N1CC[C@H](n2nc(C#Cc3cc(OC)cc(OC)c3)c3c(N)ncnc32)C1 — result for “patients with ADR”: 16.7% (hyperphosphataemia patients; oral, once daily, grade ≥3, lanthanum carbonate users).
Under “patients with adverse events”, Nc1nc2cc(-c3ccc4ncc(C(=O)N5CCOCC5)n4c3)ccc2o1 is recorded as 4% (item: Vomiting, any cause, grade ≥3; patients with advanced solid tumours; dose not given).
For CC(=O)c1c(C)c2cnc(Nc3ccc(C4CCN(CCS(C)(=O)=O)CC4)cn3)nc2n(C2CCCC2)c1=O, “patients with vomiting” read 21.1% (HR+/HER2- advanced breast cancer patients; oral, dose not given, all grades, dose escalation, sample B patients).
Under “patients with adverse event”, CN1CC[C@@H](c2c(O)cc(O)c3c(=O)cc(-c4ccc(C(F)(F)F)cc4Cl)oc23)[C@@H]1CO is recorded as 33.3% (item: Anemia; AML; oral, 100 mg, intermittent dosing).
Under “patients with serious TEAE”, N[C@@H]1c2ccccc2OC12CCN(c1cnc3c(N4CCCc5ncccc54)n[nH]c3n1)CC2 is recorded as 0% (advanced solid tumour patients; oral, 20 mg once daily).
C[C@@H]1OC(=O)NN=C1c1ccc(-c2ccc(F)cc2)c(C(F)(F)F)c1: “patients with back pain” 20% (patients, phase I trial; oral, dose not given, all arms, worst grade 1).
Under “patients with grade 3 TBIL elevation”, COc1cc2c(Oc3ccc4[nH]c(C)cc4c3F)ccnc2cc1OCC1(N)CC1 is recorded as 2.9% (paediatric refractory sarcoma patients; dose not given).
Under “patients with treatment-related TEAE”, CCNCCCNC/C=C\CNCCCNCC is recorded as 21.7% (advanced refractory solid tumour patients; intravenous, dose not given, anorexia).
Under “patients with TEAE”, C=CCNc1c(O)cc2c(O)c1C[C@@H](C)C[C@H](OC)[C@H](O)[C@@H](C)/C=C(\C)[C@H](OC(N)=O)[C@@H](OC)/C=C\C=C(/C)C(=O)N2 is recorded as 74% (item: Fatigue; unresectable or metastatic GIST/STS; intravenous, dose not given, all doses).
Under “patients with adverse event”, COc1nnc2ccc(N3CCC(c4ccc(OCCN5CCN(C)C(=O)[C@H]5C)cc4)CC3)nn12 is recorded as 8.8% (item: anemia; patients with solid tumours or lymphoma; oral, dose not given, grade at least 3, treatment-emergent).

Excerpt of the above:
For O=C1Nc2cc3[nH]nc(-c4ccncc4)c3cc2CN1Cc1ccccc1, “patients with constipation” read 0% (CTCAE v4.03; advanced solid tumour patients; intravenous, 0.45 mg/kg, schedules 1/2).
